Measured values pooled from the literature.
“And” joins repeats or separate records; there may be more than shown. ± marks the error that the study gave. In brackets after ≈: the same amount, converted by molar mass.
BCHE: Cholinesterase (BCHE, Homo sapiens, UniProt P06276)
UniProt P06276, sequence (whole entry, looked up): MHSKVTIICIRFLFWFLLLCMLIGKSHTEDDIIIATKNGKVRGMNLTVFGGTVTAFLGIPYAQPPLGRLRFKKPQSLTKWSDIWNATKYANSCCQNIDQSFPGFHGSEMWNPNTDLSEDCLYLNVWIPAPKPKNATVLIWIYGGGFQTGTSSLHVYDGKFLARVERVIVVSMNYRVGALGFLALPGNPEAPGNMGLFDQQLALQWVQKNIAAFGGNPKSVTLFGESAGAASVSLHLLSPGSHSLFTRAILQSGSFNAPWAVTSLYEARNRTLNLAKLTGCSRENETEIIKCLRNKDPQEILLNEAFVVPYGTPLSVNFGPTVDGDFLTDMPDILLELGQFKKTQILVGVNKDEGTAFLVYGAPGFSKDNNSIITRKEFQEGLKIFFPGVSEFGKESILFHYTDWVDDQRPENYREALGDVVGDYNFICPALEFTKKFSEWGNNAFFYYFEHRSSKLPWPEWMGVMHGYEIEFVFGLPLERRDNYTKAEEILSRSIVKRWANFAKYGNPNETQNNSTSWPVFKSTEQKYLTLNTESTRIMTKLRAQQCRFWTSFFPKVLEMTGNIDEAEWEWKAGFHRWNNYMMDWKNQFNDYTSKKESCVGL

SMILES	tested on	assay	system	setting	scale	measurement	value
COc1cc(N[C@H](C(=O)c2c[nH]c3ccc(OC(F)(F)F)cc23)c2ccc(Cl)cc2OC)cc(S(C)(=O)=O)c1	dengue virus 2	viral infection, luciferase reporter virus	–	0.01 nM, 48 h	–	inhibition	0.6%
CC1(C)SC2C(NC(=O)C(NC(=O)C3=C(O)C(Cc4ccccc4)NC3=O)c3ccccc3)C(=O)N2C1C(=O)O (stereo not shown)	Escherichia coli	–	ΔtolC JW5503-1	200 µM, added: 30 µg/mL 2,2'-bipyridyl	–	zone of inhibition	16 mm
CN1[C@@H]2CC[C@H]1C[C@@H](OC(=O)c1cc(Cl)cc(Cl)c1)C2	Plasmodium falciparum	–	HB3	–	–	IC50	12.6 µM
CCCn1c(O)nnc1SCC(=O)Nc1cc(Cl)ccc1Cl	Plasmodium falciparum	parasite growth, SYBR Green	3D7 wild type	72 h	–	EC50	669 ± 160 nM
Cc1ccccc1C(=O)NN=Cc1ccc(O)c(Br)c1	Cryptococcus neoformans	–	–	added: caspofungin	lower = more synergistic	FIC index	1
O=C(NCCCCN1CCN(c2cccc(Cl)c2Cl)CC1)c1cc2ccccc2s1	BCHE	inhibitor	–	–	–	IC50	10.9 ± 3.59 µM
NC12CC3CC(CC(C3)C1)C2	Plasmodium falciparum	–	7G8	–	–	IC50	5.01 µM
Cn1c(=O)ccc2ccc(F)c(CCNC[C@H]3CN(c4cnc5c(n4)NC(=O)CO5)C(=O)O3)c21	Campylobacter spp.	–	–	–	–	MIC50	< 0.015 µg/mL
CC(C)[C@@H]1NC(=O)[C@@H](Cc2ccccc2)NC(=O)[C@H](Cc2ccccc2)NC(=O)[C@@H]([C@H](C)O)NC(=O)[C@H]([C@@H](C)O)NC(=O)[C@@H](CCCNC(=N)N)NC1=O	Naegleria fowleri	–	–	trophozoites	–	IC90	> 16 µg/mL
CN[C@H](CC(C)C)C(=O)N[C@H]1C(=O)N[C@@H](CC(N)=O)C(=O)N[C@H]2C(=O)N[C@H]3C(=O)N[C@H](C(=O)N[C@H](C(=O)O)c4cc(O)cc(O)c4-c4cc3ccc4O)[C@H](O)c3ccc(c(Cl)c3)Oc3cc2cc(c3O[C@@H]2O[C@H](CO)[C@@H](O)[C@H](O)[C@H]2O[C@H]2C[C@](C)(N)[C@H](O)[C@H](C)O2)Oc2ccc(cc2Cl)[C@H]1O	Staphylococcus aureus	–	MRSA ATCC 33591	1/4 × MIC	–	biofilm inhibition	94.9%
COCC(=O)O[C@]1(CCN(C)CCCc2nc3ccccc3[nH]2)CCc2cc(F)ccc2[C@@H]1C(C)C	Plasmodium falciparum	–	HB3	–	–	IC50	5.01 µM
CN(C)c1nc(NCc2cccc(C(F)(F)F)c2)c(/N=N/c2ccc(Cl)cc2)c(N(C)C)n1	Ostrinia furnacalis	leaf dipping	–	200 mg/L, 96 h	–	mortality	40 ± 10%
OC(CN1CCC(Cc2ccc(F)cc2)CC1)c1ccc(Cl)cc1 (stereo not shown)	Plasmodium falciparum	–	GB4	–	–	IC50	0.316 µM
O=C(NN=Cc1ccc(O)c(Br)c1)c1cccc(Br)c1	Cryptococcus neoformans	–	–	concentration not given, added: caspofungin	–	MIC in combination	0.15 µg/mL
Cc1ccc2c(c1)CC[C@@](CCN(C)CCCc1nc3ccccc3[nH]1)(OC(=O)C1CC1)[C@H]2C(C)C	Plasmodium falciparum	–	D10	–	–	IC50	5.01 µM
C[C@@H](O)[C@H]1C(=O)N2C(C(=O)O)=C(S[C@@H]3CN[C@H](C(=O)N(C)C)C3)[C@H](C)[C@H]12	Klebsiella pneumoniae	–	NDM-producing, neutropenic BALB/c mouse, thigh infection, thigh	dose not given, 6 h	–	bacterial burden, best	8.3 log10 CFU/thigh
Cc1ccc2[nH]c3c(c2c1)CCCC3NCCCCc1ccccc1 (stereo not shown)	Streptococcus pneumoniae	–	–	concentration not given, 10% fetal bovine serum	baseline: without serum	MIC fold change	4
Cc1nc(Nc2ccc(C)c(Cl)c2)c2c(C)noc2n1	Plasmodium falciparum	parasite growth, SYBR Green	3D7 wild type	72 h	–	EC50	945 ± 170 nM
C#Cc1ccc(O)c(C=NNC(=O)c2ccc(Br)cc2Br)c1	Cryptococcus neoformans	–	H99	unit not given, added: amphotericin B	lower = more synergy	FICI	4
NCCCC[C@@H]1NC(=O)[C@@H](CCCN)NC(=O)[C@@H](Cc2ccccc2)NC(=O)[C@H](Cc2ccccc2)NC(=O)CNC1=O	Acanthamoeba castellanii	–	–	trophozoites	–	IC50	> 16 µg/mL
Oc1ccc(-c2nc(-c3ccc(OC4CCCC4)cc3)no2)cc1	Clostridioides difficile	–	ATCC 43255	45 µM, 1 h, spores	–	inhibition	14 to 39%
COC(=O)c1cccc(C#CCCOCCCCCCNC[C@H](O)c2cc(Cl)c(N)c(Cl)c2)c1	Plasmodium falciparum	parasite growth, SYBR Green	–	72 h	baseline: 3D7-E182D over 3D7	EC50 ratio	0.9
Nc1ncnc2c1ncn2[C@@H]1O[C@@H]2COP(=O)(O)O[C@H]3[C@@H](O)[C@H](n4cnc5c(=O)[nH]cnc54)O[C@@H]3COP(=O)(O)O[C@H]2[C@H]1O	West Nile virus	RNA sequencing, item: glycosaminoglycan metabolism diseases R-HSA-3560782	HFF-1 cells	concentration not given, downregulated pathway	baseline: WNV-infected untreated cells	fold enrichment	6.89
CS(=O)(=O)CCCn1c(Cn2c(=O)n(CC(F)(F)F)c3ccncc32)cc2cc(Cl)ccc21	respiratory syncytial virus	RT-qPCR	hospitalized infants 1-24 months, nasal swab	oral, 1-9 mg/kg daily, day 5, all doses combined	baseline: baseline	LS mean viral load change	-3.67 log10 copies/mL
CCC[C@@H]1C[C@@H](C(=O)N[C@@H]([C@H]2O[C@H](SC)[C@H](O)[C@@H](O)[C@H]2O)[C@H](C)Cl)N(C)C1	Streptococcus pneumoniae	–	–	–	–	MIC90	> 32 µg/mL
Cc1sc(CNCCCNc2cc(=O)c3ccccc3[nH]2)c(I)c1C	Plasmodium falciparum	parasite growth	–	–	–	EC50	546 ± 220 nM

SMILES	tested on	assay	system	setting	scale	measurement	value
CC(C)C[C@H]1NC(=O)[C@H]([C@@H](C)O)NC(=O)[C@@H](CCCN)NC(=O)[C@H](CCCNC(=N)N)NC(=O)[C@@H](Cc2ccccc2)NC1=O	Naegleria fowleri	–	–	trophozoites	–	IC50	> 16 µg/mL
CCCCOc1ccc(-c2noc(-c3ccc(CN)cc3)n2)cc1	Clostridioides difficile	spore germination	ATCC 43255	45 µM, 1 h	–	inhibition	12 to 33%
COCc1ccccc1C(=O)NCCOc1cc(C)cc(C)c1	Plasmodium falciparum	parasite growth	Dd2	–	–	EC50	114 ± 51.9 nM
C#Cc1ccc(O)c(C=NNC(=O)c2ccc(Br)c(Br)c2)c1	Cryptococcus neoformans	–	H99	unit not given, added: amphotericin B	lower = more synergy	FICI	1.06
COC(=O)N[C@H](C(=O)N1CCC[C@H]1c1ncc(-c2ccc(-c3ccc(-c4cnc([C@@H]5CCCN5C(=O)[C@@H](NC(=O)OC)C(C)C)[nH]4)cc3)cc2)[nH]1)C(C)C	Hepatitis C virus	–	replicon cells	75% effect level, added: NS5B inhibitor, ratio 1:1	–	combination index	0.8
NCCC[C@@H]1NC(=O)[C@@H](CCCN)NC(=O)[C@H](Cc2ccccc2)NC(=O)[C@@H](Cc2ccccc2)NC(=O)[C@H](Cc2ccccc2)NC(=O)[C@@H](CCCN)NC1=O	Naegleria fowleri	–	–	trophozoites	–	IC50	5.98 µg/mL
Cc1cc(Nc2ccc(C(F)(F)F)cc2)n2ncnc2n1	Plasmodium falciparum	parasite growth, SYBR Green	3D7 wild type	72 h	–	EC50	101 ± 29 nM
CCC(=O)N1CCN(C(=O)c2ccccc2)CC1	Plasmodium falciparum	–	GB4	–	–	IC50	3.16 µM
CC(C)[C@@H]1NC(=O)[C@@H](CCCCN)NC(=O)[C@H](CCCN)NC(=O)[C@@H](CC(=O)O)NC(=O)[C@H](C)NC(=O)[C@H](Cc2c[nH]c3ccccc23)NC(=O)[C@@H](Cc2ccccc2)NC1=O	Acanthamoeba castellanii	–	–	trophozoites	–	IC50	> 16 µg/mL
CC(CN1c2ccccc2Sc2ccccc21)N(C)C (stereo not shown)	Plasmodium falciparum	–	3D7	–	–	IC50	12.6 µM
N=C(N)c1ccc(OCc2cc(Br)cc(COc3ccc(C(=N)N)cc3)c2)cc1	Escherichia coli	checkerboard	mcr-1 polymyxin-resistant	unit not given, added: rifampicin	lower = stronger synergy	FICI	0.078
CN(CCOc1ccc(CC2SC(=O)NC2=O)cc1)c1ccccn1 (stereo not shown)	Human coronavirus OC43	virus-induced cell killing	MRC-5	–	–	Emax	18.6%
C[C@@H](O)[C@@H]1NC(=O)[C@H](Cc2ccccc2)NC(=O)[C@@H](Cc2ccccc2)NC(=O)[C@H]([C@@H](C)O)NC(=O)[C@@H](CCCN)NC(=O)[C@H](CCCNC(=N)N)NC(=O)[C@@H](CCCN)NC1=O	Acanthamoeba castellanii	–	–	trophozoites	–	IC90	> 16 µg/mL
CNC(=O)c1cc(Cl)cc(C)c1NC(=O)c1cc(Br)nn1-c1ncccc1Cl	Spodoptera litura	–	Brassica oleracea field plot	25 ppm, 168 h, 5% water-dispersible granule	–	larval viability	21.9% and 20% and 22.9%
COc1ccccc1N1CCN(Cc2c(NC(C)=O)sc(C)c2C)CC1	Plasmodium falciparum	parasite growth, SYBR Green	3D7 DHODH E182D	72 h	–	EC50	556 ± 81 nM
C#Cc1ccc(O)c(C=NNC(=O)c2ccc(C3(C(F)(F)F)N=N3)cc2)c1	Cryptococcus neoformans	–	H99	unit not given, added: amphotericin B	lower = more synergy	FICI	0.98
CN[C@@H](C)[C@H]1[C@H](O)C[C@@]2(C)[C@@H]3CC[C@H]4C(C)(C)[C@@H](NC)CC[C@@]45C[C@@]35CC[C@]12C	BCHE	inhibitor	–	–	–	IC50	3.34 ± 0.17 µM
C#Cc1cccc(C=NNC(=O)c2ccc(Br)c(Br)c2)c1O	Cryptococcus neoformans	time-kill	H99	concentration not given	–	time to complete kill	3 h
Cc1cccc(C(=O)N2CCN(Cc3cccc(NC(=O)c4cccs4)c3)CC2)c1	Plasmodium falciparum	parasite growth, SYBR Green	3D7 wild type	72 h	–	EC50	262 ± 100 nM
CCN(CC)CCO[C@H]1CC[C@@]2(C)C(=CC[C@@H]3[C@@H]2CC[C@]2(C)C(=O)CC[C@@H]32)C1	human rotavirus	viral replication, focus reduction	MA104, Wa	pretreated 20 h before infection	–	EC50	1440 nM
C[C@H]1NC(=O)[C@H](Cc2c[nH]c3ccccc23)NC(=O)[C@@H](Cc2ccccc2)NC(=O)[C@@H](CCCN)NC(=O)[C@H]([C@@H](C)O)NC(=O)[C@@H](CCCN)NC(=O)[C@H](Cc2c[nH]c3ccccc23)NC(=O)[C@@H](C)NC1=O	Acanthamoeba castellanii	–	–	trophozoites	–	IC90	> 16 µg/mL
Cc1cc(Cl)cc(S(C)(=O)=O)c1NC(=O)c1cc(Br)nn1-c1ncccc1Cl	Spodoptera litura	leaf-dip	third instar larvae	12.5 ppm, 24 h	–	mortality	0%
CC(=O)NC[C@H]1CN(c2ccc(N3CCOCC3)c(F)c2)C(=O)O1	Streptococcus pneumoniae	–	–	–	–	MIC90	1 µg/mL (≈ 2.96 µM)
NC(=NCc1ccccc1)NC(=O)c1nc(Cl)c(N)nc1N	Plasmodium falciparum	–	W2	–	–	IC50	3.98 µM
CC[C@H](C)[C@H](NC(=O)[C@H](C)NC(=O)[C@H](CCCCN)NC(=O)[C@H](CC(C)C)NC(=O)[C@H](C)NC(=O)[C@@H](NC(=O)[C@H](Cc1c[nH]cn1)NC(=O)[C@H](CC(C)C)NC(=O)[C@@H](NC(=O)[C@@H](NC(=O)[C@H](CCCCN)NC(=O)[C@H](C)NC(=O)[C@H](C)NC(=O)[C@H](CO)NC(=O)[C@H](CCCCN)NC(=O)[C@H](Cc1ccccc1)NC(=O)[C@@H](NC(=O)[C@H](CCCCN)NC(=O)[C@H](CC(C)C)NC(=O)[C@H](Cc1ccccc1)NC(=O)[C@H](CO)NC(=O)[C@H](CCCCN)NC(=O)[C@H](Cc1c[nH]c2ccccc12)NC(=O)[C@H](CCCCN)NC(C)=O)[C@@H](C)O)[C@@H](C)O)C(C)C)[C@@H](C)O)C(=O)N[C@@H](CO)C(=O)N[C@@H](CO)C(N)=O	Streptococcus pyogenes	–	erythromycin-sensitive	–	–	MIC geometric mean	15.5 µg/mL (≈ 5.28 µM)
CC(C)[C@H]1NC(=O)[C@H](Cc2ccccc2)NC(=O)[C@@H](Cc2c[nH]c3ccccc23)NC(=O)[C@H](CCCNC(=N)N)NC(=O)[C@@H](CCCN)NC(=O)[C@H](CC(N)=O)NC1=O	Naegleria fowleri	–	–	trophozoites	–	IC50	> 16 µg/mL

Some of these lines once more:
SMILES	tested on	assay	system	setting	scale	measurement	value
CCN(CC)CCO[C@H]1CC[C@@]2(C)C(=CC[C@@H]3[C@@H]2CC[C@]2(C)C(=O)CC[C@@H]32)C1	human rotavirus	viral replication, focus reduction	MA104, Wa	pretreated 20 h before infection	–	EC50	1440 nM
C#Cc1cccc(C=NNC(=O)c2ccc(Br)c(Br)c2)c1O	Cryptococcus neoformans	time-kill	H99	concentration not given	–	time to complete kill	3 h
CC[C@H](C)[C@H](NC(=O)[C@H](C)NC(=O)[C@H](CCCCN)NC(=O)[C@H](CC(C)C)NC(=O)[C@H](C)NC(=O)[C@@H](NC(=O)[C@H](Cc1c[nH]cn1)NC(=O)[C@H](CC(C)C)NC(=O)[C@@H](NC(=O)[C@@H](NC(=O)[C@H](CCCCN)NC(=O)[C@H](C)NC(=O)[C@H](C)NC(=O)[C@H](CO)NC(=O)[C@H](CCCCN)NC(=O)[C@H](Cc1ccccc1)NC(=O)[C@@H](NC(=O)[C@H](CCCCN)NC(=O)[C@H](CC(C)C)NC(=O)[C@H](Cc1ccccc1)NC(=O)[C@H](CO)NC(=O)[C@H](CCCCN)NC(=O)[C@H](Cc1c[nH]c2ccccc12)NC(=O)[C@H](CCCCN)NC(C)=O)[C@@H](C)O)[C@@H](C)O)C(C)C)[C@@H](C)O)C(=O)N[C@@H](CO)C(=O)N[C@@H](CO)C(N)=O	Streptococcus pyogenes	–	erythromycin-sensitive	–	–	MIC geometric mean	15.5 µg/mL (≈ 5.28 µM)
C#Cc1ccc(O)c(C=NNC(=O)c2ccc(Br)cc2Br)c1	Cryptococcus neoformans	–	H99	unit not given, added: amphotericin B	lower = more synergy	FICI	4
CN(CCOc1ccc(CC2SC(=O)NC2=O)cc1)c1ccccn1 (stereo not shown)	Human coronavirus OC43	virus-induced cell killing	MRC-5	–	–	Emax	18.6%
